Published values pooled from the literature.
± gives the spread as reported.
ORM1 F1/S variants: Alpha-1-acid glycoprotein 1, F1/S variants (ORM1, Homo sapiens, UniProt P02763)
Sequence of UniProt P02763 (whole entry, looked up): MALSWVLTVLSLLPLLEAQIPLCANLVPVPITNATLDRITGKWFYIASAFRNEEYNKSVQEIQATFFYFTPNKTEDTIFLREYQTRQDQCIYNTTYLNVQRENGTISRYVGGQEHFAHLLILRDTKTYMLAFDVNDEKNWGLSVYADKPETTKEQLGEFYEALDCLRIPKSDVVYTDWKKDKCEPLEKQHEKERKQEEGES
uncharacterized protein: uncharacterized protein (Spodoptera exigua, UniProt F1CEY0)
VHL with elongin B/C: von Hippel-Lindau disease tumor suppressor, with elongin B/C (VHL, Homo sapiens, UniProt P40337)
OSBP2: Oxysterol-binding protein 2 (OSBP2, Homo sapiens, UniProt Q969R2)
Sequence of UniProt Q969R2 (whole entry, looked up): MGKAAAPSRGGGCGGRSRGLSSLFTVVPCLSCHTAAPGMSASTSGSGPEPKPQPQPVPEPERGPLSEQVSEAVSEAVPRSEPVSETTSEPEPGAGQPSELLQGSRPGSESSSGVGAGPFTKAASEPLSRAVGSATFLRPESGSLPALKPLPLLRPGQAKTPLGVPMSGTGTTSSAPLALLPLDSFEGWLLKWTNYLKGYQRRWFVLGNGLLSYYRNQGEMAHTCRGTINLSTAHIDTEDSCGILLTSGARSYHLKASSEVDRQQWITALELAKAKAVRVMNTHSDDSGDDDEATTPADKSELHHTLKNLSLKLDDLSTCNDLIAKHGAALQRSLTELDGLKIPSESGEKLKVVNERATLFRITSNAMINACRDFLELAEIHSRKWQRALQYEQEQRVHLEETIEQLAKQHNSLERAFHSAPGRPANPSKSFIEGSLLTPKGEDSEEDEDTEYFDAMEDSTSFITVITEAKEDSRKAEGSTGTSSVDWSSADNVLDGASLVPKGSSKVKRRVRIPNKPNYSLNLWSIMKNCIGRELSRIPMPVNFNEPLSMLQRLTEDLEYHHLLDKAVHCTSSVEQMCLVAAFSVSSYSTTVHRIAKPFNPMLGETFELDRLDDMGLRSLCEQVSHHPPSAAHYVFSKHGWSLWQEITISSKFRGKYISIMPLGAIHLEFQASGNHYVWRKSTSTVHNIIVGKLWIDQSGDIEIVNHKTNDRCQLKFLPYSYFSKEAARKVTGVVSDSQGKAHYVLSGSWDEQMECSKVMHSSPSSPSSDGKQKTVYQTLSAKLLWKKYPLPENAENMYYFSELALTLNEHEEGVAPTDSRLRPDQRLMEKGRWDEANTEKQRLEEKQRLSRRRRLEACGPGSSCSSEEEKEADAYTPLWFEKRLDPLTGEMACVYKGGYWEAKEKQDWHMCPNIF
Sequence of UniProt P0DMS8 (whole entry, looked up): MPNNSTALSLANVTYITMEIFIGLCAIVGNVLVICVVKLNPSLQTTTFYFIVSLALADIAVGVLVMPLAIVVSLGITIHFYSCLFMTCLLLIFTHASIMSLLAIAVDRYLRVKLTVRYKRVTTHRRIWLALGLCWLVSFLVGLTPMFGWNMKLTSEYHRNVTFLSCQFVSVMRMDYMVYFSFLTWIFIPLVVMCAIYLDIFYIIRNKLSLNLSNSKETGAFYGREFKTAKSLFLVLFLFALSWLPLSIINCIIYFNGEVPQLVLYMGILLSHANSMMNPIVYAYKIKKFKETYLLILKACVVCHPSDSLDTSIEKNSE
Sequence of UniProt P41893 (whole entry, looked up): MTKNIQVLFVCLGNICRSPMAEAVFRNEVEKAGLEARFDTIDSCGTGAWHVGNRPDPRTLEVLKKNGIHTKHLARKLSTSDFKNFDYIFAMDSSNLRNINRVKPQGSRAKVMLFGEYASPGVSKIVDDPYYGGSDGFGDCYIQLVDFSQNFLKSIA
Sequence of UniProt Q00535 (whole entry, looked up): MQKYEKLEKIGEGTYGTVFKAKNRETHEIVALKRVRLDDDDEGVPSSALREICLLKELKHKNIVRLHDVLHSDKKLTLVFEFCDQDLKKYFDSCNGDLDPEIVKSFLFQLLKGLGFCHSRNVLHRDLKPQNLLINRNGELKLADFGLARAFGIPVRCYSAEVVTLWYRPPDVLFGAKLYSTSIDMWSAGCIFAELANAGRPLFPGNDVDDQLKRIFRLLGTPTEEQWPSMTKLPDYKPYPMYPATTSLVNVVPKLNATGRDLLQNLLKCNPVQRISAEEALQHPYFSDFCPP
Sequence of UniProt Q00534 (whole entry, looked up): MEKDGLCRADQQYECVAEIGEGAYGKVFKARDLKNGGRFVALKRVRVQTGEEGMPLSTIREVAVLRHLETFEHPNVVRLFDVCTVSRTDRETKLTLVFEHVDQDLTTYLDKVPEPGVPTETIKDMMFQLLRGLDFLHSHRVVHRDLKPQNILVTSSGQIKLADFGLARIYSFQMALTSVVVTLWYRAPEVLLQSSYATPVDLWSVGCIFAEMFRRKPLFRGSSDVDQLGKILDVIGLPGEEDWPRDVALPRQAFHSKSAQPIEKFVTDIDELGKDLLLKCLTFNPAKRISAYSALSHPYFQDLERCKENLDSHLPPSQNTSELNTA
Sequence of UniProt P52790 (whole entry, looked up): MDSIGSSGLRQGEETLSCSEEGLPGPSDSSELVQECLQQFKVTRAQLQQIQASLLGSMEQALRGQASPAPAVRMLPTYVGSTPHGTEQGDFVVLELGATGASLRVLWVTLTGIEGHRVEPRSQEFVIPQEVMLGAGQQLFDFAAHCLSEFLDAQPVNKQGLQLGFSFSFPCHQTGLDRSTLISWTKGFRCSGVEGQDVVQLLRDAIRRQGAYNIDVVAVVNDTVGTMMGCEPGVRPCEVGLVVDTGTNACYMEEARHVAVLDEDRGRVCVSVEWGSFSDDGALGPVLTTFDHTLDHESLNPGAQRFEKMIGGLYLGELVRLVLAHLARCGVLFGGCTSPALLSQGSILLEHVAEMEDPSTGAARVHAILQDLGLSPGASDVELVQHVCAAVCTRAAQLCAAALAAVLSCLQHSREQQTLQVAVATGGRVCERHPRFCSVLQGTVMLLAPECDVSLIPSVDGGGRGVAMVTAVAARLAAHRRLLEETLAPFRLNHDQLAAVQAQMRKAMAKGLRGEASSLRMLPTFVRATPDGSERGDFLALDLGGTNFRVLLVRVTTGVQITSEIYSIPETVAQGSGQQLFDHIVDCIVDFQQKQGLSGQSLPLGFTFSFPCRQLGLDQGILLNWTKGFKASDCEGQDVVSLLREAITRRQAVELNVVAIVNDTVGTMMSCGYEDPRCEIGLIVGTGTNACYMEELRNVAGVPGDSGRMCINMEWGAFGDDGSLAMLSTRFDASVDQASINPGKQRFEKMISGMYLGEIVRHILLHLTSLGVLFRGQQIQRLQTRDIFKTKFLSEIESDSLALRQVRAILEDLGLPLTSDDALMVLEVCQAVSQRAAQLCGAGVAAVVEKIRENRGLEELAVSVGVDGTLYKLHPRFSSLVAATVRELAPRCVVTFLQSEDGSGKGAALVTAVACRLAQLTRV
Sequence of UniProt Q9NXA8 (whole entry, looked up): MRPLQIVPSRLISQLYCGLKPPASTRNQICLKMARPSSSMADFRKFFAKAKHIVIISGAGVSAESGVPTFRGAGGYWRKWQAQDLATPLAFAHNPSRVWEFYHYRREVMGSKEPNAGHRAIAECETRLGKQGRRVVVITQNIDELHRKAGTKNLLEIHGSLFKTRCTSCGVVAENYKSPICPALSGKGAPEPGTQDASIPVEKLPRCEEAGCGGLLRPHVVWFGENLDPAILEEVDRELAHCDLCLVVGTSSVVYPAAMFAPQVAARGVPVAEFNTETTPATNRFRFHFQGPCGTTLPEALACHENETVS

O=c1cccccc1S
Ki (Carbonic anhydrase 2 (CA2, Homo sapiens, UniProt P00918, L197G); esterase activity, inhibitor, p-nitrophenyl acetate hydrolysis; pH 8.0): 61 ± 5 µM

CCN(CC)CCCN(c1ccccc1)C1Cc2ccccc2C1
Ki (ORM1 F1/S variants; competitive inhibitor, ultrafiltration; 15 min, 37 °C, with: [3H]S-warfarin): 13.1 µM

OC[C@H]1OC(O)[C@H](O)[C@@H](O)[C@@H]1O (stereo partly drawn)
Ki (Hexokinase-3 (HK3, Homo sapiens, UniProt P52790); substrate inhibition; with: ATP 20 mM, saturating): 9200 ± 500 µM

CCCCCCCCCCCO
Ki (uncharacterized protein; binding; with: 1-NPN): 3.6 µM

CCOC(=O)[C@H](CCc1ccccc1)N[C@H]1CCc2ccccc2N(CC(=O)O)C1=O
Ki (ORM1 F1/S variants; competitive inhibitor, ultrafiltration; 15 min, 37 °C, with: [3H]S-warfarin): 58.9 µM

CCCCCCCCCOC(C)=O
Ki (uncharacterized protein; binding; with: 1-NPN): 8.44 µM

CSc1ccc2c(c1)N(CCC1CCCCN1C)c1ccccc1S2 (stereo not drawn)
Ki (ORM1 F1/S variants; competitive inhibitor, ultrafiltration; 15 min, 37 °C, with: [3H]S-warfarin): 0.93 µM

Cc1ncsc1-c1ccc(CNC(=O)[C@@H]2C[C@@H](O)CN2C(=O)[C@@H](NC(=O)C2(F)CC2)C(C)(C)C)c(OCCOc2ccc(CN3CCN(c4cc(-c5ccccc5O)nnc4N)CC3)cc2)c1
Ki (VHL with elongin B/C; binding): 0.45 µM

COC(=O)C1=C(C)NC(C)=C(C(=O)O[C@H]2CCN(Cc3ccccc3)C2)[C@H]1c1cccc([N+](=O)[O-])c1
Ki (ORM1 F1/S variants; competitive inhibitor, ultrafiltration; 15 min, 37 °C, with: [3H]tamsulosin): 17.4 µM

O=C(CCc1ccc(O)cc1)N[C@H]1C(O)O[C@H](CO)[C@@H](O)[C@@H]1O (stereo partly drawn)
Ki (Glucokinase (Leishmania braziliensis, UniProt A4HPA0)): 56.9 ± 16.6 µM

CCCCCCCCCCCCCC(C)=O
Ki (uncharacterized protein; binding; with: 1-NPN): 7.99 µM

COCc1cc(C(=O)Nc2cc([C@H]3CC[C@@H](OC(=O)NC(C)C)C3)[nH]n2)n(C)n1
Ki (Cyclin-dependent kinase 6, with cyclin D3 (CDK6, Homo sapiens, UniProt Q00534); kinase activity, inhibitor, fluorescence): > 0.702 µM

Cc1ncsc1-c1ccc(CNC(=O)[C@@H]2C[C@H](O)CN2C(=O)[C@@H](NC(=O)C2(F)CC2)C(C)(C)C)c(OCCc2ccc(CN3CCN(c4cc(-c5ccccc5O)nnc4N)CC3)cc2)c1
Ki (VHL with elongin B/C; binding): > 30 µM

O=C1CC(CCNC(=S)NCCCC[C@H](NS(=O)(=O)c2cccc(F)c2)C(=O)N[C@@H](Cc2c[nH]c3ccccc23)C(=O)NC2CCC2)=NO1
Ki (NAD-dependent protein deacylase sirtuin-5, mitochondrial (SIRT5, Homo sapiens, UniProt Q9NXA8); slow-binding inhibitor, continuous enzyme): 0.122 µM

CC(=O)[C@H]1CC[C@H]2[C@@H]3CCC4=CC(=O)CC[C@]4(C)[C@H]3CC[C@]12C
Ki (ORM1 F1/S variants; competitive inhibitor, ultrafiltration; 15 min, 37 °C, with: [3H]S-warfarin): 54.9 µM

C[C@@]1(O)CCC[C@H]1n1c(=O)c(C(F)F)cc2cnc(NC3CCN(S(C)(=O)=O)CC3)nc21
Ki (Cyclin-dependent kinase 5, with p25 (CDK5, Homo sapiens, UniProt Q00535); kinase activity, inhibitor, fluorescence): 0.00013 µM

COC(=O)C1=C(C)NC(C)=C(C(=O)OCCN(C)Cc2ccccc2)C1c1cccc([N+](=O)[O-])c1 (stereo not drawn)
Ki (ORM1 F1/S variants; competitive inhibitor, ultrafiltration; 15 min, 37 °C, with: [3H]S-warfarin): 3.19 µM

C[C@H](CCC(=O)NCCS(=O)(=O)O)[C@H]1CC[C@H]2[C@@H]3[C@@H](O)C[C@@H]4C[C@H](O)CC[C@]4(C)[C@H]3CC[C@]12C
Ki (OSBP2; [3H]-25-hydroxycholesterol binding, competitive inhibitor): > 100 µM

Nc1nc2c(cnn2CCc2ccccc2)c2nc(-c3ccco3)nn12
Ki (Adenosine receptor A3 (ADORA3, Homo sapiens, UniProt P0DMS8); NanoBRET competition binding; HEK293 expressing Nluc-A3; co-addition with tracer): 8.13 µM

C[C@H](CCCC(C)(C)O)[C@H]1CC[C@H]2[C@@H]3CC=C4C[C@@H](O)CC[C@]4(C)[C@H]3CC[C@]12C
Ki (OSBP2; binding, radioligand competition; with: [3H]-25-hydroxycholesterol): 0.055 ± 0.008 µM

O=[N+]([O-])c1ccc(OS(=O)(=O)O)cc1
Ki (Low molecular weight phosphotyrosine protein phosphatase (stp1, Schizosaccharomyces pombe, UniProt P41893)): 6600 ± 700 µM

A few entries again:
O=[N+]([O-])c1ccc(OS(=O)(=O)O)cc1
Ki (Low molecular weight phosphotyrosine protein phosphatase (stp1, Schizosaccharomyces pombe, UniProt P41893)): 6600 ± 700 µM

Cc1ncsc1-c1ccc(CNC(=O)[C@@H]2C[C@@H](O)CN2C(=O)[C@@H](NC(=O)C2(F)CC2)C(C)(C)C)c(OCCOc2ccc(CN3CCN(c4cc(-c5ccccc5O)nnc4N)CC3)cc2)c1
Ki (VHL with elongin B/C; binding): 0.45 µM

C[C@H](CCCC(C)(C)O)[C@H]1CC[C@H]2[C@@H]3CC=C4C[C@@H](O)CC[C@]4(C)[C@H]3CC[C@]12C
Ki (OSBP2; binding, radioligand competition; with: [3H]-25-hydroxycholesterol): 0.055 ± 0.008 µM
